{"data": "Published values pooled from the literature", "note": "Every numbered part comes from another study and shows a few of its results, in no order. Values joined by “and” are separate records of one study, mostly repeats; a detail may differ.", "sequence of UniProt O95835 (whole entry, looked up)": "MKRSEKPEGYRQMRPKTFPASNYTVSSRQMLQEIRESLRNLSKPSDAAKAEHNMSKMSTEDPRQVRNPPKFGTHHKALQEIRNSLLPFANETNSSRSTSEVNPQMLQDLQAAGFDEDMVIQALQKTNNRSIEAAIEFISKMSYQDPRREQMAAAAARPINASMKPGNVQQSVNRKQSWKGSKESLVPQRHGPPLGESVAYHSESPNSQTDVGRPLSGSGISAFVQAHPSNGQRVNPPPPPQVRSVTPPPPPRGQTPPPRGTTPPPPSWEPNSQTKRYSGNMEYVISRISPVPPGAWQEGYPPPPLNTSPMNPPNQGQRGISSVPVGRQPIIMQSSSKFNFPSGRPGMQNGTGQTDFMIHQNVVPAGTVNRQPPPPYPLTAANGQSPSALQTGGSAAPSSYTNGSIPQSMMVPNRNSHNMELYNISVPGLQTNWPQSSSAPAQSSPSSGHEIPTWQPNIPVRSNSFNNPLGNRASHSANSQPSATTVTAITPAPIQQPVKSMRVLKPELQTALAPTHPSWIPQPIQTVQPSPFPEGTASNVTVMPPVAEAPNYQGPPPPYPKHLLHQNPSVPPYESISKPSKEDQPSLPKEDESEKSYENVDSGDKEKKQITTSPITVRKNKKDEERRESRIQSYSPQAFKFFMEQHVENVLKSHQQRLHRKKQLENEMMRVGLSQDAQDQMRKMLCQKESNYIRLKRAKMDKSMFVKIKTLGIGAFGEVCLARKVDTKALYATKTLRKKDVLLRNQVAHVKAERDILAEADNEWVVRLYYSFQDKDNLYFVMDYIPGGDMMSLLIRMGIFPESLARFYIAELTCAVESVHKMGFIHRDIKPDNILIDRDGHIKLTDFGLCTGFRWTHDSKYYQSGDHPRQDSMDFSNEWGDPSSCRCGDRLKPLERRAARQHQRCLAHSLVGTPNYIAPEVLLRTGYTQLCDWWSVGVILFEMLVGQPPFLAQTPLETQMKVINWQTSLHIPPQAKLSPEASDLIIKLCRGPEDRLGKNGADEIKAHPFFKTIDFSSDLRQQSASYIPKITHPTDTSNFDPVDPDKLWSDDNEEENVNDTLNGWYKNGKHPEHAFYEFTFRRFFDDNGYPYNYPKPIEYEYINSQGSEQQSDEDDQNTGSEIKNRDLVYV", "sequence of UniProt P42336 (whole entry, unmodified, looked up)": "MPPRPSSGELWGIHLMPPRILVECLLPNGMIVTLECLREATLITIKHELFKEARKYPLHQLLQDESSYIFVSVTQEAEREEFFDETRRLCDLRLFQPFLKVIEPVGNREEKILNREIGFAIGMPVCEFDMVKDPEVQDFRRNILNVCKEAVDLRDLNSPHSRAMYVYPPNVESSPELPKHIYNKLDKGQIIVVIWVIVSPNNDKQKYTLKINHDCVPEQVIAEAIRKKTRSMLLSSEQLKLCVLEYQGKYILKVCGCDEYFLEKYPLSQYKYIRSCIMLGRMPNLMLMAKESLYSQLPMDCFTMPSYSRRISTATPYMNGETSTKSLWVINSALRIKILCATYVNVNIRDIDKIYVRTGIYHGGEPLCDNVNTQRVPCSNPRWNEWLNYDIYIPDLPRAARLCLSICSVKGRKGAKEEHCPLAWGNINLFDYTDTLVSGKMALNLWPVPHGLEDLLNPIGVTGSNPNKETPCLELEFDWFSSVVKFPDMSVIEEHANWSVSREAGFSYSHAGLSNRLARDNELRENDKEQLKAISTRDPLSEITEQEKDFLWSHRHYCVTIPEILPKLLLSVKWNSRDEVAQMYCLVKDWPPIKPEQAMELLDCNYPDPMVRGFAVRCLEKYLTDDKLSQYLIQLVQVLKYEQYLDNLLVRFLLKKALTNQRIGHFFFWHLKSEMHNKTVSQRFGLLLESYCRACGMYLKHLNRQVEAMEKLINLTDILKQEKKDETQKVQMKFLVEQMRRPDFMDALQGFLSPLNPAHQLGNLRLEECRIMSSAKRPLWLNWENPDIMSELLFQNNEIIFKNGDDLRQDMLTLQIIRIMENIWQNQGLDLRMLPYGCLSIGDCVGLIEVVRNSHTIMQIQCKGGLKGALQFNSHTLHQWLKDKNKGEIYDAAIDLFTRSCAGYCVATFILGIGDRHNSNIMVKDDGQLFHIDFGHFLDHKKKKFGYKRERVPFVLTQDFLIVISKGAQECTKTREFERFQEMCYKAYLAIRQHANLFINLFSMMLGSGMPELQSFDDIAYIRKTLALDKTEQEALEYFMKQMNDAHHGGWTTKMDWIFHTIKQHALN", "sequence of UniProt Q9UK32 (whole entry, looked up)": "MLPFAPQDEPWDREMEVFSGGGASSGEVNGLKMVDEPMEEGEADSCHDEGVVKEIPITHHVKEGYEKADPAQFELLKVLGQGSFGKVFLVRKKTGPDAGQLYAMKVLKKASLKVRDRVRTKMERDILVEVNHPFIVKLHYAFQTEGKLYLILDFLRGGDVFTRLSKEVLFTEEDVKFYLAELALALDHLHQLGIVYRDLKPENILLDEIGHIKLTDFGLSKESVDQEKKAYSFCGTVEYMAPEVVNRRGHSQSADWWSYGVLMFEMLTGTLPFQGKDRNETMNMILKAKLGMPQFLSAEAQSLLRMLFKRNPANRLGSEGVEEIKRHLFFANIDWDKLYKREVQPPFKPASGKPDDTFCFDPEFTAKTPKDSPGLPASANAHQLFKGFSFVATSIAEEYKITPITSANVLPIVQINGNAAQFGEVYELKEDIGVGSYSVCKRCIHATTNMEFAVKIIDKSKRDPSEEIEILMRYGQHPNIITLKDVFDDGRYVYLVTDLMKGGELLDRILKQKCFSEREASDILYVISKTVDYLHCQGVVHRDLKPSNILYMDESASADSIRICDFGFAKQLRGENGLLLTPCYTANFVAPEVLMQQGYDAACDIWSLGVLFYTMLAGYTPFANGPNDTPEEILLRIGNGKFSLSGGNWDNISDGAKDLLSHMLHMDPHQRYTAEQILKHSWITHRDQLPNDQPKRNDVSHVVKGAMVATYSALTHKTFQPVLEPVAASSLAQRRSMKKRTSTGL", "sequence of UniProt Q99558 (whole entry, looked up)": "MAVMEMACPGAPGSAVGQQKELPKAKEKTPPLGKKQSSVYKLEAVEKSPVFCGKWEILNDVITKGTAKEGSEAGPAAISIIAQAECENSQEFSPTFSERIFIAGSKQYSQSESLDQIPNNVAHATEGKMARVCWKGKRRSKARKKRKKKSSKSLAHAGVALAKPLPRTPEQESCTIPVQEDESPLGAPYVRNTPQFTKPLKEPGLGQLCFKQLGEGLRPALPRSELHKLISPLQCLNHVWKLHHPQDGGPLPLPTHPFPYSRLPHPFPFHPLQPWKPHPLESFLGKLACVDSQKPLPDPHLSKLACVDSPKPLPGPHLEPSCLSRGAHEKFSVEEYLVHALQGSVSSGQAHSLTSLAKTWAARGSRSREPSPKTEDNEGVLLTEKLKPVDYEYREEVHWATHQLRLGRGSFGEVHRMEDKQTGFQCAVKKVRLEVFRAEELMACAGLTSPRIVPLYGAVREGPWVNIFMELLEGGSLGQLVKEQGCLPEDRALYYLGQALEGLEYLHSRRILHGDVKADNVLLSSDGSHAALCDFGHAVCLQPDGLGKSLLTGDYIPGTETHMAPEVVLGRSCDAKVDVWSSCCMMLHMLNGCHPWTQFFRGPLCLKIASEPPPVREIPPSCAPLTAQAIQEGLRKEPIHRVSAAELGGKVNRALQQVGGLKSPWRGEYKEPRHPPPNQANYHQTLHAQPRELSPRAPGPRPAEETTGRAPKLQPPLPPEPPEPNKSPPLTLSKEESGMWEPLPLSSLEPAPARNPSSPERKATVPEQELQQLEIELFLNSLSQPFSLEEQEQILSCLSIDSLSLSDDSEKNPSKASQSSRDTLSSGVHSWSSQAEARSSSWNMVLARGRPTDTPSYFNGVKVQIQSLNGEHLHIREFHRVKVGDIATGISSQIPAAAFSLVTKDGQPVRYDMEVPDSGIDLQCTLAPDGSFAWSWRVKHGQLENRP", "sequence of UniProt P42681 (whole entry, looked up)": "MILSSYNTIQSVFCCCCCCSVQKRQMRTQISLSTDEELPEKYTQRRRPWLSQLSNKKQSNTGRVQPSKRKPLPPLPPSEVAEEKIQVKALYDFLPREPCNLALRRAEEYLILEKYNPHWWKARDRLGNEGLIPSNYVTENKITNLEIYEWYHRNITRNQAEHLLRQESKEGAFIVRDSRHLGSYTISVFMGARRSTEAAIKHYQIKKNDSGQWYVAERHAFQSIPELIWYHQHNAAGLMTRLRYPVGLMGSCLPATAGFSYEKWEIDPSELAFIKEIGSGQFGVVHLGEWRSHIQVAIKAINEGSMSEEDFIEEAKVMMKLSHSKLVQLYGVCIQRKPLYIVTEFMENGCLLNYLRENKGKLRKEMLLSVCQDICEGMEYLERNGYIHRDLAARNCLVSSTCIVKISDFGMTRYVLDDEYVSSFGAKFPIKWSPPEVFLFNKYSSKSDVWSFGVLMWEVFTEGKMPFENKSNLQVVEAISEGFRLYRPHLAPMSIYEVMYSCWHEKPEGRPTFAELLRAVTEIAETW", "sequence of UniProt P0C1S8 (whole entry, looked up)": "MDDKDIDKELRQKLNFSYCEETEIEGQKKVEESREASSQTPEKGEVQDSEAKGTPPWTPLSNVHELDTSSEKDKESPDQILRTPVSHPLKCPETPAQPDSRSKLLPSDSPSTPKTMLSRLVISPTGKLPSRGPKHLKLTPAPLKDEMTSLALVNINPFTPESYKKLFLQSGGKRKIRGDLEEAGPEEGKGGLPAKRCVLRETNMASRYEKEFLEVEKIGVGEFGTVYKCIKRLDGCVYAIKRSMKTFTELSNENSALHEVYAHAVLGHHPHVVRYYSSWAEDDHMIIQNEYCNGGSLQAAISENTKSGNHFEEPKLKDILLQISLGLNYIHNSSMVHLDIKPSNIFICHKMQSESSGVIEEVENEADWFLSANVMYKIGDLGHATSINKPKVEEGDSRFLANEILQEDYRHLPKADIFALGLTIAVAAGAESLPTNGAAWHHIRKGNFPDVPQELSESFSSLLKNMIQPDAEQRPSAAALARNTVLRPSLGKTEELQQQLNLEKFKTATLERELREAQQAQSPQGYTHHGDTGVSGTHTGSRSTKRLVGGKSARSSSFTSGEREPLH"}
{"data": "Set 1", "cell line": "HaCaT", "concentration": "100 µM", "time": "18 h"}
{"SMILES": "CC[C@@H]([C@H](C)O)n1ncn(-c2ccc(N3CCN(c4ccc(OC[C@@H]5CO[C@@](Cn6cncn6)(c6ccc(F)cc6F)C5)cc4)CC3)cc2)c1=O", "viability": "52.6%"}
{"SMILES": "CC1=C(/C=C/C(C)=C/C=C/C(C)=C/C=C/C=C(C)/C=C/C=C(C)/C=C/C2=C(C)CCCC2(C)C)C(C)(C)CCC1", "viability": "36.7%"}
{"SMILES": "CN(C)c1ccc(C(=C2C=CC(=[N+](C)C)C=C2)c2ccc(N(C)C)cc2)cc1", "viability": "23.7%"}
{"SMILES": "CC(C)C[C@H](NC(=O)[C@H](Cc1ccccc1)NC(=O)c1cnccn1)B(O)O", "viability": "22%"}
{"SMILES": "Cc1ccc(C(=O)C(C)CN2CCCCC2)cc1 (centres unmarked)", "viability": "107%"}
{"SMILES": "CSc1nc2cc(Cl)c(Oc3cccc(Cl)c3Cl)cc2[nH]1", "viability": "16.9%"}
{"SMILES": "N#Cc1ccc2[nH]cc(CCCCN3CCN(c4ccc5oc(C(N)=O)cc5c4)CC3)c2c1", "viability": "18.9%"}
{"data": "Set 2", "cell line": "mouse MPNST tumor cells", "method": "high-content immunofluorescence imaging", "measured": "nuclear SOX9", "concentration": "10 µM", "time": "12 h", "setting": "mean of 2 replicates", "relative to": "DMSO control", "direction": "higher = more nuclear SOX9"}
{"Structure (SMILES)": "Cc1[nH]cnc1CN1CCc2c(c3ccccc3n2C)C1=O", "nuclear SOX9 intensity": "88.9 % of DMSO"}
{"Structure (SMILES)": "COCCCOc1cc(C[C@@H](C[C@H](N)[C@@H](O)C[C@H](C(=O)NCC(C)(C)C(N)=O)C(C)C)C(C)C)ccc1OC", "nuclear SOX9 intensity": "124 % of DMSO and 88.8 % of DMSO and 99.5 % of DMSO"}
{"Structure (SMILES)": "CCOC(=O)[C@H](CCc1ccccc1)N[C@@H](C)C(=O)N1[C@H](C(=O)O)C[C@@H]2CCC[C@@H]21", "nuclear SOX9 intensity": "102 % of DMSO and 100 % of DMSO"}
{"Structure (SMILES)": "CNc1oc(-c2cccc3ccccc23)nc1C#N", "nuclear SOX9 intensity": "107 % of DMSO"}
{"Structure (SMILES)": "CC(=O)NC[C@H]1CN(c2ccc(N3CCOCC3)c(F)c2)C(=O)O1", "nuclear SOX9 intensity": "93.6 % of DMSO and 114 % of DMSO"}
{"Structure (SMILES)": "Cc1cc2sc(NC(=O)Cc3ccccc3)nc2cc1Cl", "nuclear SOX9 intensity": "108 % of DMSO"}
{"Structure (SMILES)": "CN(Cc1ccccc1)C(=O)[C@H](Cc1ccc2ccccc2c1)NC(=O)[C@@H]1C[C@@H](O)CN1C(=O)c1cn(C)c2ccccc12", "nuclear SOX9 intensity": "92.9 % of DMSO"}
{"data": "Set 3", "Compound": "C[C@@H]1CN(c2cc(-c3n[nH]c4ccc(OC5(C)CC5)cc34)ncn2)C[C@H](C)O1", "read-out": "cell-free assay", "method": "competition with immobilised ligand", "concentration": "0.1 µM"}
{"target": "Transient receptor potential cation channel subfamily M member 6 (TRPM6, Homo sapiens, UniProt Q9BX84)", "remaining binding": "64%"}
{"target": "Serine/threonine-protein kinase LATS1 (LATS1, Homo sapiens, UniProt O95835)", "remaining binding": "96%"}
{"target": "Mitogen-activated protein kinase kinase kinase 14 (MAP3K14, Homo sapiens, UniProt Q99558)", "remaining binding": "64%"}
{"target": "RAF proto-oncogene serine/threonine-protein kinase (RAF1, Homo sapiens, UniProt P04049)", "remaining binding": "100%"}
{"target": "Vascular endothelial growth factor receptor 1 (FLT1, Homo sapiens, UniProt P17948)", "remaining binding": "100%"}
{"target": "Dual specificity protein kinase CLK1 (CLK1, Homo sapiens, UniProt P49759)", "remaining binding": "86%"}
{"target": "Epidermal growth factor receptor (EGFR, Homo sapiens, UniProt P00533, L858R/T790M)", "remaining binding": "84%"}
{"target": "Wee1-like protein kinase 2 (WEE2, Homo sapiens, UniProt P0C1S8)", "remaining binding": "100%"}
{"target": "Phosphatidylinositol 4,5-bisphosphate 3-kinase catalytic subunit alpha isoform (PIK3CA, Homo sapiens, UniProt P42336, E545A)", "remaining binding": "76%"}
{"target": "Activin receptor type-2A (ACVR2A, Homo sapiens, UniProt P27037)", "remaining binding": "94%"}
{"target": "Cyclin-dependent kinase 13 (CDK13, Homo sapiens, UniProt Q14004)", "remaining binding": "84%"}
{"target": "Serine/threonine-protein kinase Nek11 (NEK11, Homo sapiens, UniProt Q8NG66)", "remaining binding": "100%"}
{"target": "Serine/threonine-protein kinase tousled-like 1 (TLK1, Homo sapiens, UniProt Q9UKI8)", "remaining binding": "94%"}
{"target": "Ephrin type-B receptor 3 (EPHB3, Homo sapiens, UniProt P54753)", "remaining binding": "98%"}
{"target": "NT-3 growth factor receptor (NTRK3, Homo sapiens, UniProt Q16288)", "remaining binding": "86%"}
{"target": "TGF-beta receptor type-1 (TGFBR1, Homo sapiens, UniProt P36897)", "remaining binding": "100%"}
{"target": "Tyrosine-protein kinase TXK (TXK, Homo sapiens, UniProt P42681)", "remaining binding": "80%"}
{"target": "Ribosomal protein S6 kinase alpha-6, N-terminal kinase domain (RPS6KA6, Homo sapiens, UniProt Q9UK32)", "remaining binding": "77%"}
{"target": "Serine/threonine-protein kinase WNK3 (WNK3, Homo sapiens, UniProt Q9BYP7)", "remaining binding": "73%"}
{"data": "Set 4", "Compound": "CC(C)(C(=O)O)[C@H](NC(=O)Cc1cccc(I)c1)c1ccc2oc(=O)[nH]c2c1", "method": "Incucyte 3D growth", "concentration": "30 µM", "direction": "higher = more growth"}
{"cell line": "A375", "time": "84 h", "spheroid area": "4.47e+07 a.u. and 5.13e+07 a.u. and 6.96e+07 a.u. and 5.62e+07 a.u. and 5.59e+07 a.u. and 6.25e+07 a.u."}
{"cell line": "IPC-298", "time": "150 h", "spheroid area": "2.87e+07 a.u. and 2.72e+07 a.u. and 3.28e+07 a.u. and 2.44e+07 a.u. and 2.82e+07 a.u. and 3.25e+07 a.u."}
{"cell line": "MEL-JUSO", "time": "462.52 h", "spheroid area": "5.5e+07 a.u. and 2.47e+07 a.u. and 2.63e+07 a.u. and 3.59e+07 a.u. and 8.11e+07 a.u. and 2.38e+07 a.u."}
{"cell line": "IPC-298", "time": "96 h", "spheroid area": "3.3e+07 a.u. and 3.03e+07 a.u. and 2.65e+07 a.u. and 2.45e+07 a.u. and 2.6e+07 a.u. and 2.22e+07 a.u."}
{"cell line": "A375", "time": "54 h", "spheroid area": "1.25e+07 a.u. and 2.96e+07 a.u. and 3.62e+07 a.u. and 1.14e+07 a.u. and 1.41e+07 a.u. and 2.77e+07 a.u."}
{"cell line": "A375", "time": "48.52 h", "spheroid area": "2.29e+07 a.u. and 2.49e+07 a.u. and 2.65e+07 a.u. and 2.76e+07 a.u. and 2.45e+07 a.u."}
{"cell line": "NCI-H358", "time": "42 h", "spheroid area": "3.73e+06 a.u. and 2.92e+06 a.u. and 4.2e+06 a.u. and 3.89e+06 a.u. and 3.53e+06 a.u. and 4.24e+06 a.u."}
{"data": "Set 5", "target": "Diamine acetyltransferase 1 (Homo sapiens, UniProt P21673)", "mode": "inhibitor", "concentration": "10 µM", "relative to": "control", "Construct (P21673 1-171)": "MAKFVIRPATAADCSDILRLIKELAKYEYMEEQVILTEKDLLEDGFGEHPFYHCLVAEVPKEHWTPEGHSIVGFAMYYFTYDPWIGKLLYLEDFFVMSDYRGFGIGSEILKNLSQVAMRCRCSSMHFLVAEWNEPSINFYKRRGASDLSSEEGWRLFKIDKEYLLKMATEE"}
{"Compound": "CC1(C)[C@@H](O)CC[C@]2(C)[C@H]3C(=O)C=C4[C@H]5C[C@@](C)(C(=O)O)CC[C@]5(C)CC[C@@]4(C)[C@]3(C)CC[C@@H]12", "remaining activity [%]": 89}
{"Compound": "O=C(O)[C@H]1O[C@@H](Oc2cc(O)c3c(=O)cc(-c4ccc(O)cc4)oc3c2)[C@H](O)[C@@H](O)[C@@H]1O", "remaining activity [%]": 97.5}
{"Compound": "O=C(O)c1ccc(O)cc1", "remaining activity [%]": 92.2}
{"Compound": "NC(=O)NC1NC(=O)NC1=O (centres unmarked)", "remaining activity [%]": 97.2}
{"note": "A few entries again (set 3):"}
{"target": "Ephrin type-B receptor 3 (EPHB3, Homo sapiens, UniProt P54753)", "remaining binding": "98%"}
{"target": "NT-3 growth factor receptor (NTRK3, Homo sapiens, UniProt Q16288)", "remaining binding": "86%"}
{"target": "TGF-beta receptor type-1 (TGFBR1, Homo sapiens, UniProt P36897)", "remaining binding": "100%"}
{"target": "Tyrosine-protein kinase TXK (TXK, Homo sapiens, UniProt P42681)", "remaining binding": "80%"}
{"target": "Ribosomal protein S6 kinase alpha-6, N-terminal kinase domain (RPS6KA6, Homo sapiens, UniProt Q9UK32)", "remaining binding": "77%"}
{"target": "Serine/threonine-protein kinase WNK3 (WNK3, Homo sapiens, UniProt Q9BYP7)", "remaining binding": "73%"}
